Published values gathered from unrelated publications.
Compare with care: the assays were run in different laboratories. ± gives the spread as reported.

| SMILES | test system | setting | tissue uptake [%ID/g] |
| --- | --- | --- | --- |
| CC(C)C[C@H](NC(=O)[C@H](Cc1ccc(O)cc1)NC(=O)[C@@H](CCCNC(=N)N)NC(=O)[C@@H](CO)NC(=O)[C@H](Cc1ccccc1)NC(=O)[C@H](CC1CCCCC1)NC(=O)[C@H](CC(=O)O)NC(=O)CCC(C(=O)O)N1CCCN2CCN(CCCN(CC(=O)O)CC2)CC1)C(=O)N[C@@H](Cc1c[nH]c2ccccc12)C(=O)N[C@@H](CO)C(=O)O (stereo partly shown) [copper-64 labelled] | female NMRI nude mice, heart | 22 h p.i. | 0.6 ± 0.1 |
| N=C(N)NCCC[C@@H]1NC(=O)[C@H](CCCCNC(=O)CNC(=O)CNC(=O)CNC(=O)CC[C@H](NC(=O)CCOCCOCCOCCOCCNC(=O)CC[C@H](NC(=O)CN2CCN(CC(=O)O)CCN(CC(=O)O)CCN(CC(=O)O)CC2)C(=O)NCCOCCOCCOCCOCCC(=O)N[C@@H](CCC(=O)NCC(=O)NCC(=O)NCC(=O)NCCCC[C@@H]2NC(=O)[C@@H](Cc3ccccc3)NC(=O)[C@H](CC(=O)O)NC(=O)CNC(=O)[C@H](CCCNC(=N)N)NC2=O)C(=O)NCC(=O)NCC(=O)NCC(=O)NCCCC[C@@H]2NC(=O)[C@@H](Cc3ccccc3)NC(=O)[C@H](CC(=O)O)NC(=O)CNC(=O)[C@H](CCCNC(=N)N)NC2=O)C(=O)NCC(=O)NCC(=O)NCC(=O)NCCCC[C@@H]2NC(=O)[C@@H](Cc3ccccc3)NC(=O)[C@H](CC(=O)O)NC(=O)CNC(=O)[C@H](CCCNC(=N)N)NC2=O)NC(=O)[C@@H](Cc2ccccc2)NC(=O)[C@H](CC(=O)O)NC(=O)CNC1=O [indium-111 labelled] | female athymic nude mice, heart | intravenous, 3 µCi, 0.5 h, U-87 MG glioma xenograft | 1.79 ± 0.31 |
| N=C(N)NCCC[C@@H]1NC(=O)[C@H](CCCCNC(=O)CC[C@H](NC(=O)[C@H](CCCCNC(=O)c2ccc(NN)nc2)NC(=O)c2ccc(NN)nc2)C(=O)NCCCC[C@@H]2NC(=O)[C@@H](Cc3ccccc3)NC(=O)[C@H](CC(=O)O)NC(=O)CNC(=O)[C@H](CCCNC(=N)N)NC2=O)NC(=O)[C@@H](Cc2ccccc2)NC(=O)[C@H](CC(=O)O)NC(=O)CNC1=O [technetium-99m labelled] | female athymic nude mice, spleen | intravenous, 0.1 MBq, 1 h, U-87 MG glioma xenograft | 1.57 ± 0.17 |
| CSCC[C@H](NC(=O)[C@H](CC(C)C)NC(=O)[C@H](Cc1c[nH]cn1)NC(=O)CNC(=O)[C@@H](NC(=O)[C@H](C)NC(=O)[C@H](Cc1c[nH]c2ccccc12)NC(=O)[C@H](CCC(N)=O)NC(=O)CNC(=O)[C@H](CO)NC(=O)CNC(=O)CCCCCCCNC(=O)CCC(=O)Nc1ccc(CNC23CNCCNCC(N)(CNCCNC2)CNCCNC3)cc1)C(C)C)C(N)=O [copper-64 labelled] | female SCID mice, PC-3 xenograft, muscle | intravenous, 0.6 MBq, 4 h | 0.093 ± 0.003 |
| N=C(N)NCCC[C@H](NC(=O)[C@H](CCCCN)NC(=O)[C@H](CCC(N)=O)NC(=O)CCOCCOCCOCCNC(=O)CN1CCN(CC(=O)O)CCN(CC(=O)O)CCN(CC(=O)O)CC1)C(=O)N[C@@H](CCCCN)C(=O)N[C@@H](CCCNC(=N)N)C(=O)N[C@@H](CCCCN)C(=O)N[C@@H](CCCCN)C(=O)N[C@@H](CO)C(=O)N[C@@H](CCCNC(=N)N)C(=O)N[C@@H](Cc1ccc(O)cc1)C(=O)N[C@@H](CCCCN)C(=O)N[C@@H](CO)C(=O)O [copper-64 labelled] | male C57BL/6 mice, B16-F10 tumour, blood | intravenous, 60 min | 0.88 ± 0.12 |
| N=C(N)NCCC[C@@H]1NC(=O)[C@H](CCCCNC(=O)CNC(=O)CNC(=O)CNC(=O)CC[C@H](NC(=O)CNC(=O)CNC(=O)CNC(=O)[C@H](CCCCNC(=O)c2ccc(NN)nc2)NC(=O)c2ccc(NN)nc2)C(=O)NCC(=O)NCC(=O)NCC(=O)NCCCC[C@@H]2NC(=O)[C@@H](Cc3ccccc3)NC(=O)[C@H](CC(=O)O)NC(=O)CNC(=O)[C@H](CCCNC(=N)N)NC2=O)NC(=O)[C@@H](Cc2ccccc2)NC(=O)[C@H](CC(=O)O)NC(=O)CNC1=O [technetium-99m labelled] | female athymic nude mice, spleen | intravenous, 0.1 MBq, 1 h, U-87 MG glioma xenograft | 1.74 ± 0.98 |
| N=C(N)NCCC[C@@H]1NC(=O)[C@H](CCCCNC(=O)CCOCCOCCOCCOCCNC(=O)CN2CCN(CC(=O)O)CCN(CC(=O)O)CCN(CC(=O)O)CC2)NC(=O)[C@@H](Cc2ccccc2)NC(=O)[C@H](CC(=O)O)NC(=O)CNC1=O [indium-111 labelled] | female athymic nude mice, lungs | intravenous, 3 µCi, 72 h, U-87 MG glioma xenograft | 0.16 ± 0.03 |
| CSCC[C@H](NC(=O)[C@H](CC(C)C)NC(=O)[C@H](Cc1c[nH]cn1)NC(=O)CNC(=O)[C@@H](NC(=O)[C@H](C)NC(=O)[C@H](Cc1c[nH]c2ccccc12)NC(=O)[C@H](CCC(N)=O)NC(=O)CCCCCCCNC(=O)CCC(=O)Nc1ccc(CNC23CNCCNCC(N)(CNCCNC2)CNCCNC3)cc1)C(C)C)C(N)=O [copper-64 labelled] | female SCID mice, PC-3 xenograft, pancreas | intravenous, 0.6 MBq, 1 h | 67.4 ± 4.57 |
| N=C(N)NCCC[C@@H]1NC(=O)[C@H](CCCCNC(=O)CCOCCOCCOCCOCCNC(=O)CC[C@H](NC(=O)CCOCCOCCOCCOCCNC(=O)[C@H](CCCCNC(=O)c2ccc(NN)nc2)NC(=O)c2ccc(NN)nc2)C(=O)NCCOCCOCCOCCOCCC(=O)NCCCC[C@@H]2NC(=O)[C@@H](Cc3ccccc3)NC(=O)[C@H](CC(=O)O)NC(=O)CNC(=O)[C@H](CCCNC(=N)N)NC2=O)NC(=O)[C@@H](Cc2ccccc2)NC(=O)[C@H](CC(=O)O)NC(=O)CNC1=O [technetium-99m labelled] | athymic nude mice, tumour | intravenous, 60 min, blocking, together with: excess RGD2 14 mg/kg co-injected | 1.81 ± 0.56 |
| N=C(N)NCCC[C@@H]1NC(=O)[C@H](CCCCNC(=O)CC[C@H](NC(=O)CCOCCOCCOCCOCCNC(=O)CN2CCN(CC(=O)O)CCN(CC(=O)O)CCN(CC(=O)O)CC2)C(=O)NCCCC[C@@H]2NC(=O)[C@@H](Cc3ccccc3)NC(=O)[C@H](CC(=O)O)NC(=O)CNC(=O)[C@H](CCCNC(=N)N)NC2=O)NC(=O)[C@@H](Cc2ccccc2)NC(=O)[C@H](CC(=O)O)NC(=O)CNC1=O [indium-111 labelled] | female athymic nude mice, muscle | intravenous, 3 µCi, 24 h, U-87 MG glioma xenograft | 0.39 ± 0.11 |

Some of these lines once more:
| SMILES | test system | setting | tissue uptake [%ID/g] |
| --- | --- | --- | --- |
| CSCC[C@H](NC(=O)[C@H](CC(C)C)NC(=O)[C@H](Cc1c[nH]cn1)NC(=O)CNC(=O)[C@@H](NC(=O)[C@H](C)NC(=O)[C@H](Cc1c[nH]c2ccccc12)NC(=O)[C@H](CCC(N)=O)NC(=O)CNC(=O)[C@H](CO)NC(=O)CNC(=O)CCCCCCCNC(=O)CCC(=O)Nc1ccc(CNC23CNCCNCC(N)(CNCCNC2)CNCCNC3)cc1)C(C)C)C(N)=O [copper-64 labelled] | female SCID mice, PC-3 xenograft, muscle | intravenous, 0.6 MBq, 4 h | 0.093 ± 0.003 |
